# Results of several laboratories.
# Lines come from different studies, so protocols differ.
# Sequence of UniProt P04062 (whole entry, unmodified, looked up): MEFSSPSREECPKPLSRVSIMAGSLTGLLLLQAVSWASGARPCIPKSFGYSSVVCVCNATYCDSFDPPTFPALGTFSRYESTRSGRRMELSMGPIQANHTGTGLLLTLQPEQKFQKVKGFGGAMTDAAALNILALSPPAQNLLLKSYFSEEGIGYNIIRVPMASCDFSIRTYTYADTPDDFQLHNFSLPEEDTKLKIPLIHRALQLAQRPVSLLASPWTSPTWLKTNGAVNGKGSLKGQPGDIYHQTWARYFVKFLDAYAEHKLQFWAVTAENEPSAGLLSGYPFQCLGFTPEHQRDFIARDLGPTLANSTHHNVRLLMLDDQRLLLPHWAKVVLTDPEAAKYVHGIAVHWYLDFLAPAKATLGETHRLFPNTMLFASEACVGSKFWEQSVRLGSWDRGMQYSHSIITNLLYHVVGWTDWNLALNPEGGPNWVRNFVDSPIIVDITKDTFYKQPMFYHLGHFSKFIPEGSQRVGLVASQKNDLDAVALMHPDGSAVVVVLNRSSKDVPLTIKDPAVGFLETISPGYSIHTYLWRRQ
SMILES,tested on,assay,system,setting,how to read,quantity,result
CCCCCCCCCC[N+](C)(C)CCCCCCCCOc1cc(OCCCCCCCC[N+](C)(C)CCCCCCCCCC)cc(OCCCCCCCC[N+](C)(C)CCCCCCCCCC)c1.[Br-].[Br-].[Br-],Staphylococcus aureus,,HA-MRSA ATCC 33591,,,MIC,8 µM
CC[C@H]1OC(=O)[C@H](C)[C@@H](OC(=O)Cc2ccc(OC)cc2)[C@H](C)[C@@H](O[C@@H]2O[C@H](C)C[C@H](N(C)C)[C@H]2O)[C@](C)(OC)C[C@@H](C)C(=O)[C@H](C)[C@@H](O)[C@]1(C)O,Staphylococcus aureus,,DSM 20231 MSSA,,,MIC,8 µg/mL
CCCC/C=C/C(=O)N[C@@H](Cc1cc(F)cc(F)c1)C(=O)N[C@@H]1C(=O)N2CCC[C@H]2C(=O)N(C)[C@@H](C)C(=O)N[C@@H](C)C(=O)N2CCC[C@H]2C(=O)O[C@H]1C,Staphylococcus aureus,"microbial growth, broth dilution",,,,MIC,0.098 µg/mL
CC[C@H](C)[C@H](NC(=O)[C@H](CCC(N)=O)NC(=O)[C@H](Cc1ccccc1)NC(=O)[C@H](CC(N)=O)NC(=O)[C@H](CCCCN)NC(=O)[C@H](CC(C)C)NC(=O)[C@H](CCCNC(=N)N)NC(=O)[C@H](CCCCN)NC(=O)[C@H](CCCCN)NC(=O)[C@@H](NC(=O)[C@H](CO)NC(=O)[C@H](CCCCN)NC(=O)CNC(=O)[C@H](CC(C)C)NC(=O)[C@H](CCCCN)NC(=O)[C@H](CCCCN)NC(=O)[C@H](CC(C)C)NC(=O)[C@H](CCCCN)NC(=O)[C@H](CCCCN)NC(=O)[C@H](CCCNC(=N)N)NC(=O)[C@H](CC(C)C)NC(=O)CNC(=O)[C@@H](N)CCCNC(=N)N)[C@@H](C)CC)C(=O)NCC(=O)N[C@@H](Cc1ccccc1)C(=O)N[C@@H](CO)C(=O)N[C@H](C(=O)N1CCC[C@H]1C(=O)N[C@@H](Cc1ccccc1)C(=O)N[C@@H](C)C(=O)NCC(=O)O)C(C)C,Staphylococcus aureus,broth microdilution,ATCC 29213,,,MIC,35.7 µM
OC[C@@H]1[C@@H](O)[C@H](O)[C@@H](O)CN1CCCCCOCc1ccc(-c2ccc(F)cc2)cc1,"Lysosomal acid glucosylceramidase (GBA1, Homo sapiens, UniProt P04062, R534H)","inhibitor, 4MU-β-D-glucopyranoside",,added: 4MU-β-D-glucopyranoside,,IC50,400 nM
CCCCCC[N+](C)(C)CCCCCCCCOc1cc(OCCCCCCCC[N+](C)(C)CCCCCC)cc(OCCCCCCCC[N+](C)(C)CCCCCC)c1.[Br-].[Br-].[Br-],Staphylococcus aureus,,HA-MRSA ATCC 33591,,,MIC,1 µM
COc1ccc2cc3[n+](cc2c1OC)CCc1cc2c(cc1-3)OCO2.[Cl][Fe-]([Cl])([Cl])[Cl],Staphylococcus aureus,,,"24 h, 37 °C",,MIC,200 µM
CC(C)C[C@@H]1NC(=O)[C@H](CCCN)NC(=O)[C@H](C(C)C)NC(=O)[C@@H]2CCCN2C(=O)[C@@H](Cc2ccccc2)NC(=O)[C@H](CC(C)C)NC(=O)[C@H](CCCN)NC(=O)[C@H](C(C)C)NC(=O)[C@@H]2CCCN2C(=O)[C@@H](Cc2ccccc2)NC1=O,Staphylococcus aureus,,"NCTC 8325, Mueller Hinton broth","21 h, 37 °C",,MIC,6.2 µg/mL
N=C(N)NCCC[C@@H]1NC(=O)[C@@H](CCCNC(=N)N)NC(=O)[C@H](CCCNC(=N)N)NC(=O)[C@@H](C(c2ccccc2)c2ccccc2)NC(=O)[C@@H](C(c2ccccc2)c2ccccc2)NC(=O)[C@@H](C(c2ccccc2)c2ccccc2)NC(=O)[C@@H](CCCNC(=N)N)NC1=O,Staphylococcus aureus,,"ATCC 29213, MSSA",,,MIC,4 µg/mL
CCCCCCn1cc[n+](CCCCOc2cc(OCCCC[n+]3ccn(CCCCCC)c3)cc(OCCCC[n+]3ccn(CCCCCC)c3)c2)c1.[Br-].[Br-].[Br-],Staphylococcus aureus,,CA-MRSA USA300-0114,,,MIC,2 µM
COc1c(NC(=O)c2ccc(NC(=O)c3ccc(NC(=O)[C@H](Cc4c[nH]nn4)NC(=O)c4ccc(NC(=O)/C(C)=C/c5ccc(O)cc5)cc4)cc3)cc2)ccc(C(=O)O)c1O,Staphylococcus aureus,broth microdilution,ciprofloxacin-resistant,,,MIC,32 µg/mL
CC[C@H]1OC(=O)[C@H](C)[C@@H](OC(=O)Cc2c(F)cccc2F)[C@H](C)[C@@H](O[C@@H]2O[C@H](C)C[C@H](N(C)C)[C@H]2O)[C@](C)(OC)C[C@@H](C)C(=O)[C@H](C)[C@@H](O)[C@]1(C)O,Staphylococcus aureus,,ATCC 43300 MRSA,,,MIC,> 128 µg/mL
CCc1sc(C(=O)NC2CCN(C)CC2)cc1Br,Trypanosoma cruzi,"reporter mRNA translation, inhibitor, refers to: capped polyadenylated Renilla luciferase mRNA",cell-free extract,concentration not given,relative to: control RNA,relative translation,107%
CCCCCCCCn1cc[n+](CCCCCCCCOc2cc(OCCCCCCCC[n+]3ccn(CCCCCCCC)c3)cc(OCCCCCCCC[n+]3ccn(CCCCCCCC)c3)c2)c1.[Br-].[Br-].[Br-],Staphylococcus aureus,,SH1000 MSSA,,,MIC,1 µM
COc1cc(C(=O)Nc2ccc(C(=O)O)c(O)c2OC)ccc1NC(=O)c1ccc(NC(=O)[C@H](Cc2c[nH]nn2)NC(=O)c2ccc(NC(=O)/C(C)=C/c3ccc(O)cc3)cc2)cc1,Staphylococcus aureus,broth microdilution,ciprofloxacin-resistant,,,MIC,16 µg/mL
CCCCCCn1cc[n+](CCCCCCCCCCOc2cc(OCCCCCCCCCC[n+]3ccn(CCCCCC)c3)cc(OCCCCCCCCCC[n+]3ccn(CCCCCC)c3)c2)c1.[Br-].[Br-].[Br-],Staphylococcus aureus,,SH1000 MSSA,,,MIC,2 µM
CN[C@H](CC(C)C)C(=O)N[C@H]1C(=O)N[C@@H](CC(N)=O)C(=O)N[C@H]2C(=O)N[C@H]3C(=O)N[C@H](C(=O)N[C@H](C(=O)N[C@@H](CCCNC(=N)N)C(N)=O)c4cc(O)cc(O)c4-c4cc3ccc4O)[C@H](O)c3ccc(c(Cl)c3)Oc3cc2cc(c3O[C@@H]2O[C@H](CO)[C@@H](O)[C@H](O)[C@H]2O[C@H]2C[C@](C)(NCc3ccc(OCc4cn(CC(=O)N[C@H](C(=O)N[C@@H](CCN)C(=O)N[C@H]5CCNC(=O)[C@H]([C@@H](C)O)NC(=O)[C@H](CCN)NC(=O)[C@H](CCN)NC(=O)[C@H](CC(C)C)NC(=O)[C@@H](CC(C)C)NC(=O)[C@H](CCN)NC5=O)[C@@H](C)O)nn4)c(OC)c3)[C@H](O)[C@H](C)O2)Oc2ccc(cc2Cl)[C@H]1O,Staphylococcus aureus,broth microdilution,"MRSA USA300, cation-adjusted Mueller-Hinton broth","20 to 24 h, 37 °C, 0.002% polysorbate 80",,MIC,1 µg/mL
O=C(CCC(=O)Nc1ccc(Cl)cc1Cl)N/N=C/c1ccc([N+](=O)[O-])o1,Trypanosoma cruzi,"reporter mRNA translation, inhibitor, refers to: capped polyadenylated Renilla luciferase mRNA",cell-free extract,concentration not given,relative to: control RNA,relative translation,95.4%
CC[C@H]1OC(=O)[C@H](C)[C@@H](OC(=O)Cc2cccc3ccccc23)[C@H](C)[C@@H](O[C@@H]2O[C@H](C)C[C@H](N(C)C)[C@H]2O)[C@](C)(OC)C[C@@H](C)C(=O)[C@H](C)[C@@H](O)[C@]1(C)O,Staphylococcus aureus,,BAA-977,,,MIC,8 µg/mL
CC1C=CC=CC(C)C2C=CC3CC(C)(O)C(Cl)C(C)C3C2C(=O)C(Cl)(Cl)C(=O)C(C)C(=O)O1 (centres unmarked),Staphylococcus aureus,,MRSA clinical isolate,OXA FA resistant,,MIC,0.1 µg/mL
CCCC(=O)Oc1c(C)c(OC)c2c(/C=C/c3ccccc3)c(CC)c(=O)oc2c1C,Staphylococcus aureus,"microbial growth, broth dilution",ATCC25923,,,MIC,2500 µg/mL
CC[C@H]1OC(=O)[C@H](C)[C@@H](OC(=O)Cc2ccc(N)cc2)[C@H](C)[C@@H](O[C@@H]2O[C@H](C)C[C@H](N(C)C)[C@H]2O)[C@](C)(OC)C[C@@H](C)C(=O)[C@H](C)[C@@H](O)[C@]1(C)O,Staphylococcus aureus,,ATCC 43300 MRSA,,,MIC,> 128 µg/mL
COc1cc(C(=O)O)ccc1NC(=O)c1ccc(NC(=O)c2ccc(NC(=O)[C@H](Cc3c[nH]nn3)NC(=O)c3ccc(NC(=O)/C(C)=C/c4ccc(O)cc4)cc3)cc2)cc1,Staphylococcus aureus,broth microdilution,ciprofloxacin-resistant,,,MIC,32 µg/mL
CCCCCCCC[N+](C)(C)CCCCCCCCOc1cc(OCCCCCCCC[N+](C)(C)CCCCCCCC)cc(OCCCCCCCC[N+](C)(C)CCCCCCCC)c1.[Br-].[Br-].[Br-],Staphylococcus aureus,,SH1000 MSSA,,,MIC,1 µM
CC[C@H]1OC(=O)[C@H](C)[C@@H](OC(=O)Cc2ccccc2Cl)[C@H](C)[C@@H](O[C@@H]2O[C@H](C)C[C@H](N(C)C)[C@H]2O)[C@](C)(OC)C[C@@H](C)C(=O)[C@H](C)[C@@H](O)[C@]1(C)O,Staphylococcus aureus,microbial growth,BAA976,,,MIC,2 µg/mL
CC(C)C[C@@H]1NC(=O)[C@@H](CC(C)C)NC(=O)[C@H](CCN)NC(=O)[C@@H](NC(=O)[C@H](CCN)NC(=O)[C@@H](N)[C@@H](C)O)CCNC(=O)[C@H]([C@@H](C)O)NC(=O)[C@H](CCN)NC(=O)[C@H](CCN)NC1=O,Staphylococcus aureus,,MRSA USA300,,,MIC,> 138 µM

# Excerpt of the above:
SMILES,tested on,assay,system,setting,how to read,quantity,result
CC[C@H]1OC(=O)[C@H](C)[C@@H](OC(=O)Cc2ccc(N)cc2)[C@H](C)[C@@H](O[C@@H]2O[C@H](C)C[C@H](N(C)C)[C@H]2O)[C@](C)(OC)C[C@@H](C)C(=O)[C@H](C)[C@@H](O)[C@]1(C)O,Staphylococcus aureus,,ATCC 43300 MRSA,,,MIC,> 128 µg/mL
CCCC/C=C/C(=O)N[C@@H](Cc1cc(F)cc(F)c1)C(=O)N[C@@H]1C(=O)N2CCC[C@H]2C(=O)N(C)[C@@H](C)C(=O)N[C@@H](C)C(=O)N2CCC[C@H]2C(=O)O[C@H]1C,Staphylococcus aureus,"microbial growth, broth dilution",,,,MIC,0.098 µg/mL
CCCCCCn1cc[n+](CCCCOc2cc(OCCCC[n+]3ccn(CCCCCC)c3)cc(OCCCC[n+]3ccn(CCCCCC)c3)c2)c1.[Br-].[Br-].[Br-],Staphylococcus aureus,,CA-MRSA USA300-0114,,,MIC,2 µM
